Published values collected from several papers.
Each numbered part is a random draw from the data of one study; scales do not carry over between parts. Positions count from the first letter of the parent shown.

Series 1
Target: CCNE2, cyclin fold, Cln2 fusion (human)
Technique: yeast growth competition, sequencing
Matrix: yeast
Notes: weak parent motif
Relative to: not given
Direction: higher = stronger binding
Starting sequence: PKN2 docking peptide (human); VSAVQKLDFSDTM; partner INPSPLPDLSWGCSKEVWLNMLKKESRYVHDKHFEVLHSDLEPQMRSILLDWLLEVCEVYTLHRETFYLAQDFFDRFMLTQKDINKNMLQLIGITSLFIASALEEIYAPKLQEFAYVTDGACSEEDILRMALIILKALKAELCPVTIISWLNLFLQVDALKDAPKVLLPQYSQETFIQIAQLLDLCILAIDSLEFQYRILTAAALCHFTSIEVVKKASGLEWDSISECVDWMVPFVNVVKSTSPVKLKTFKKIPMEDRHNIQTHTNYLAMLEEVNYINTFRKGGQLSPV
Variant	normalised enrichment score
V1E	-0.46
F9N	0.414
D11R	0.489
F9H	-0.321
M13Y	0.37
S10R	0.458
S2D	-0.665
D11M	-0.102
K6R	0.117
M13R	0.493
F9V	-0.675
S2H	-0.0638
V4A	-0.128
K6H	0.272
T12I	-0.177
V1S	0.398
T12Q	-0.329
F9D	0.179
S10N	-0.295
A3S	-0.244
S10H	0.146
V4G	-0.131
S10G	0.387
F9M	-0.44
L7C	-0.329

Series 2
Target: Interferon regulatory factor 5, full length, phosphomimetic (IRF5, Homo sapiens, UniProt Q13568-2, residues 1-514, S451D/S453D/S456D/S462D)
Technique: protein-binding microarray
Form: double-stranded DNA, one strand shown
Matrix: in vitro
Concentration: 940 nM top
Notes: 60-bp whole probe
Added: salmon DNA 0.4 mg/ml
Relative to: random background probes
Direction: higher = stronger binding
Shared flanks, not repeated: GCCTAGCAC … GTCTTGATTCGCTTGACGCTGCTG
Strand	fitted relative affinity [z-score]
CACGGTATCGGTTTCGGGACGTGCTAG	9.29
TTAGCACTGGGGACTGGATTAGTGCTA	-0.18
TTAGGTATCGGTTTTGGTTAGTGCTAG	9.68
TTAAGACTGCTTTTCCTTTAGTGCTAG	0.255
GACGATATCAGCATCGAGACGTGCTAG	-0.145
ATAAAAATCTTTGTTGGAGGGGTGCTA	0.55
GTCGAACTGAGTCTCGAGACGTGCTAG	1.81
GGGAACTTAAACCTCTAAAGGTGCTAG	-0.0995
GAGGGTTCCGGTTTCGGGACGTGCTAG	4.53
CTTTCTCTGCTCTTTTCAACAGTGCTA	2.71
TTGGGTCTCCTACTGCTTTAGTGCTAG	0.357
TTAGAACTGAGGACTGGATTAGTGCTA	-0.344
TTAGATATCGGGTAGCGATTAGTGCTA	0.244
AGCCATCTGCAGCAGGCCCCGTGCTAG	-0.137
TCAAGTCCCTATCTCCTACTGTGCTAG	0.907
GACGGACTAGACTTTCGGGACGTGCTA	0.101
TCACATGTTGCTCTCCGACTGTGCTAG	0.312
TTAGAACTGGGGTAACGATTAGTGCTA	-0.167
TTAGGTTTCGGACAGGGTTAGTGCTAG	6.88

Series 3
Target: RNA binding protein fox-1 homolog 2, RRM domain, GST-SBP tag (RBFOX2, Homo sapiens, UniProt O43251-10, residues 100-194)
Technique: RNA Bind-n-Seq
Form: RNA
Matrix: in vitro
Concentration: 365 nM
Notes: natural RNA segment, single round, ends assumed
Relative to: no-protein control
Direction: higher = stronger binding
Shared flanks, not repeated: GGGAGUUCUACAGUCCGACGAUC … UGGAAUUCUCGGGUGCCAA
Residues (chain): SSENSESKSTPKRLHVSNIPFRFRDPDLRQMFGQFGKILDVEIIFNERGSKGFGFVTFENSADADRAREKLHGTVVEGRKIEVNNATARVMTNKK
Strand	RBNS enrichment (R)
UCCCUAUUCUGCUGUAGGGGACUAGAUUUCUAAUAGAGAACAUUGGCAUGGUAGCUGAAGCCCACUCCUGUGCAAGCCAUACUGGAACUUCAUAUUGAGAAUAGAAGACG	0.807
UAAAAUCACUUCUCUCUUUACAUAUUUCGAACAUAUGUUUGCUUUCUACACUUUGCAGAUUUUAUUUAGGAUUUAAUUCUUUAAAGACUAUAUUCAUUUAGUCACUAUAG	0.581
UCCUCCACACACCCUCCUUUUUUUACGGUCAAUAUAUUUGUAAAUGGUACAAGAUGAAGGACAACAACUGUCUCCAUGGGCCACGUGCCCUAGAAGGACUCUCCCCAACU	0.485
AAUAUCCAGUCAUUAAGGAGUUGUCACUCUUCAUCAGAGUCACCGGACCUAUGCAAUUACAUGGGCUCCAUAUCAAAUGGCAUGGUGUCUCUACUGCUGAUUCUCACCUU	0.18
GCCUUAUUGAAUAGGUCACUAUUAAAUUCCUUUAAAUGUUGAUAUCUGCCAUUUGUGGAAACAACGUAAAUUCUACUUAAGUGUAAACAAGGCAAGCCUCAGACCAGCAA	0.314
UGACAGAUGUUUUUCUAAAAAGGACUAUUAUCAGUUUCCAAAUACAAUACUUCUCUCUUCUGGUUUUUCCUGAAUGAGCCUGAUUUUGUUGCUGGUUUUCAUCAUCUAUG	0.222
UGUGGCUGUCUUUUUUAAUCCUUGUGUAAAGCAGCAAAAAAGACCUAAAGGGAAUUGUAAUUUGGUUAUAAUUCAGGAUUUGGAAAUAAAUUUAUUAUUUGUAAAACAUG	0.331
UAUUCCGUAUCAGAUUGCAAAGACGGAAUGUUACUAUUUUAUCAGCAAGGUAUUAAAAUGCAUUUAUAAAUUCUUCUUGGCUUCAUUCAUGAAUAAACGUGUUAGCAAUU	1.07
GUAAGGCAGAGCUGGGGUGCAGGUAGAAGUUGGGGACAGAGGAAGAUCUGGAAGUAAGCAAAUGUGAAAAUUCCUUUUGGAACCUGACAGAUGCAGCUAAACUAAACAGU	0.662
CUAGCCCCCAAAUCAAAAGCACUGUAUAGCAUUUCACACCGAGCCCCUCACCAAAACUCACACAGUUGCGAGAAGAGCUGCUGUCUGUGGACACGUAGAGAAAGGACAUU	0.402
AUCUAGAGGUGAAACAGGCAAGUGAAAUGGACACCUCUGCUGUGAAUGUUUUAGAGAAGGAAAUUCAAAAAAUGUUGUAACUGAAAGCACUGUUGAAUAUGGGUAUCGGC	4.34
GCUCCAACGCACAAUCCUUACUGUGCCCUUUCCACCCCCACACUCACACCAAUCUGCAGAAACCUCUUCCCUGGGGUGGAAGCCAGAGAGCUUAGAGGAAAAAGGUCAGC	0.329

Series 4
Target: ABI1, truncated, D143A, DHFR fusion (Arabidopsis thaliana)
Technique: DHFR PCA, deep sequencing
Matrix: yeast
Notes: methotrexate growth selection, single substitutions
Added: (+)-ABA 1.4 µM
Relative to: wild-type fitted maximum
Direction: higher = stronger binding
Starting sequence: PYL1, truncated, DHFR fusion (Arabidopsis thaliana); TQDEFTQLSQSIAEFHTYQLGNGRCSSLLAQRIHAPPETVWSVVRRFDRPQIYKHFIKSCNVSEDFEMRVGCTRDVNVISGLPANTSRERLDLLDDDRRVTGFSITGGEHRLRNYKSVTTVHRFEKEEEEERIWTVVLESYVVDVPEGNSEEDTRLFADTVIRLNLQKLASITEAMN; partner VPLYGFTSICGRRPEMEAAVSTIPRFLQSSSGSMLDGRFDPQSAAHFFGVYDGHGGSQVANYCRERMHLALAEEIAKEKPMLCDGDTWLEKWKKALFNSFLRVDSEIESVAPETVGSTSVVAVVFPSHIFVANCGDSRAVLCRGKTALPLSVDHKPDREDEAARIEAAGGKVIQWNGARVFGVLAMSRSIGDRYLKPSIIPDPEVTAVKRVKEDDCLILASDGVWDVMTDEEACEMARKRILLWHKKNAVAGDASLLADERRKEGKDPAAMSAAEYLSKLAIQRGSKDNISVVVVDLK
Variant	relative binding score [%]
R163F	-49.5
E174A	11
R49N	35.2
Y18P	40.1
L156S	38.2
K58W	5.59
T73C	44.5
I33S	6.56
A84N	17.2
R69C	51.1
E151V	57.3
T6Q	68.5
K126H	67.6
F15E	2.29
D3I	24.4

Series 5
Target: RING finger protein unkempt homolog, zinc fingers 1-6, GST-SBP tag (UNK, Homo sapiens, UniProt Q9C0B0, residues 30-357)
UniProt Q9C0B0, sequence (30-357, looked up): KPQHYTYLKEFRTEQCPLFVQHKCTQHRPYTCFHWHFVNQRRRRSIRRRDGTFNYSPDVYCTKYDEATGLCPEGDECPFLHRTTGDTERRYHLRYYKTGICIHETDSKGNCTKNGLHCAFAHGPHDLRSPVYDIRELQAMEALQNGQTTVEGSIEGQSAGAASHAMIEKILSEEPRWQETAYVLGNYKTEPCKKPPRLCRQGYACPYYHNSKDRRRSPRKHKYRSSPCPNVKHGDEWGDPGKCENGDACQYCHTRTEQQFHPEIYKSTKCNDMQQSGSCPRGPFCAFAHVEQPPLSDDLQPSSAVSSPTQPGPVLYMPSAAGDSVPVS
Technique: RNA Bind-n-Seq
Form: RNA
Matrix: in vitro
Concentration: not given
Notes: RNA with constant flanks, ends assumed
Relative to: input RNA pool
Direction: higher = stronger binding
Shared flanks, not repeated: GGGAGUUCUACAGUCCGACGAUC … CAACAGAGGAUUGAGCAUCA
Strand	bound/input enrichment [ratio]
UUUUCAGUAAGACUUUCAGGCACUUCUUCCCUUUUGAUUUCUUUUUUUUCCUCUGUUUUUCCGCAUGCAAGUAUGUUGGUACGUUAUGUCCUGGUUUAAAAAGGAUUAAAAUUUUAAAAU	1.04
UGGUGCCCAUGGCGGCCGCCCCGGAGCCCCACGAGACGGAGAAAAAGCCCUUCAAGCUCCCCGGUAUUUUAGAUGUUGAGAACACUCCAUGUGCUCGAGAAUCUAUACUCUAUGGCUCAU	0.129
UUUUGCAUUGUUGGUGUUGACUGUUGACUCUGUAGUGUAGGAGCAAUGAGCAUGUAAUUGCCGCACAAGUAGAGCGGAGGAUAGAGCAAAUUAUGGCUGAUGGAAAAGAUUUAAAUAGUC	66.3
UCUCUCGAGUUGAAGAAGACUAUCUCUGGAGGAUAAAACAACUAGGAUCCCACUCUCCAGCCGCACUUUUGAAUACCCUAUUCUACUUUAACACUAAGUAUUUUGGCCUGAAAACAGUGG	0.144
UGUGUAUAGGGGGAAGGGGUUCUUUACAUUUUCUGUGGUUUGUGCUUUUUUCUUCAGUAAAUCCGUUCCCACCAUCGCAUGCCCAGGGGCCACUACCUGGCAUUAUCGCAUGCUGGGAUC	0.491
GCAGAUGCAGUAGGCGUAACUGUUGUGCUAAUUACUUGUACCUAUCGAGGACAAGAAUUUAUCCGAGUUGGCUAUUAUGUAAAUAAUGAAUAUACUGAGACAGAAUUAAGGGAAAAUCCA	0.396
UUCAUUCUGCUAUUCCAGAGACUUCAGAAUUCCAAAACAACCAAGUUUAUCAAGAGUUUUUCCGUCUUUAUUAAUUUGUAUUGCAUAAAAUAUGGGGCACUAGCACUACAAGAAAUAUUU	0.995

A few entries again (series 1):
Variant	normalised enrichment score
A3S	-0.244
T12Q	-0.329
D11R	0.489
V1E	-0.46
F9D	0.179
V4G	-0.131
